Assay results collected from several papers.
Every numbered part comes from another study and shows a few of its results, in no order. Positions count from the first letter of the parent shown.

Sample 1 — method: RNA Bind-n-Seq; form: RNA; sample: in vitro; concentration: 365 nM; baseline: no-protein control; reading: higher = stronger binding
Target: RNA binding protein fox-1 homolog 2, RRM domain, GST-SBP tag (RBFOX2, Homo sapiens, UniProt O43251-10, residues 100-194)
Setting: natural RNA segment, single round, ends assumed
All sequences stand within: GGGAGUUCUACAGUCCGACGAUC … UGGAAUUCUCGGGUGCCAA
Construct (chain): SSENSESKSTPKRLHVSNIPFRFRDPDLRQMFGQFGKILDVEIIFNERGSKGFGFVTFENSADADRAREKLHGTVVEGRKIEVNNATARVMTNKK
Oligonucleotide | RBNS enrichment (R)
CCCUUGCUUCAACCUCCCCAGGUGGGGGACCUGGCCUCUGCCUAAAUGCUUCUGGAGACGGAAACAUAUUCCCUACAGGGAAUGAAGCUUCUCAGAGAAACUGCCGAAAG | 0.213
AGCAGUGGAGAUGAAAUCAAGACCUUGCAAAAUGGAUACUAGGAGAUGAACAACAAUUCAACGUGCUUCUCUCAGUGCCUGGAGGAUGCAGCUCUCCACACGCAGGGACU | 0.348
CAAAUAUCUCAUUUUACAAGGUAGUUUAAAUUGUGUUAAAAUCACUAGCAAGAAGUAUAUAUUUUCUUUGAUUUUUAUUUUCAUUUUCCUUUGCCUGUAUUUAUCAAAGA | 0.576
UCCAGGGCAACUCUAGCAUCAGAGCAAAAGCCUUGGGUUUCUCGCAUUCAGUGGCCUAUCUCCAGAUUGUCUGAUUUCUGAAUGUAAAGUUGUUGUGUUUUUUUUUAAAU | 2.1
GUGGUCCCUUGUUAGUACCGAAGUGCAAAAAAGAAAUGCAGUUCUGUGUUUGGAACAAGAAGCAUCUCAGCAUUCUGUGAGAUCUGCAUGGAUCCUGUGGGUGGAGUCAG | 0.783
GGUUUCCCUCCCUGUUUUCCUACCUCUACGGCAAGCCCAAAGUGUCUUCCCGGGAGCCCAGCGCAGCCCCCGGCUCUUACCCAGGACCCCGCCCCGUGCUGAGCCUUCUG | 0.51
GCCUGACAUUUGGAGUGUUCCCCUUCCACUGAGGGCAGUCGAUAGAGCUGUAUUAAGCCACUUAAAAUGUUCACUUUUGACAAAGGCAAGCACUUGUGGGUUUUUGUUUU | 0.544
UUCACAUUUCAUUUUUUCUUAGCACAUGUUGAUAAAAUAGUCACAAGGAGAAAUUACCAGUUACGGUUUAUUAAAUCUCUUUUAAAAUGCAGUCAAGGAAAACUAGCCUU | 0.53
AUGCCUUUUUAAAAUUUAAUUUUCUAGCUGGCUCCAAUUCAAAUUGAGGAUUUAUGUAUUAGGCCACUUACUUGGUUGGCAAGUGCAGGAACUCAGUUAAAAUGCAGUUG | 0.365
GGGGUGGGUGUAGGGGCUUACAAAGCCUUACACAGGGCGAGGGGUUGGUGGGAGGGUUGGCACCUGCACACUCCAUCUCCUGCUCACCACCUGCCUCUAAUCUGAGCUGC | 0.352
GCUAGAGGGGUGUGUGGUAGGUCGAUAAGACUGUGCCAGUGCCUGCGGAACCAACACACCCUGCUGCCAGCUCCUCCAGCCACAGGCAUGGGACACUAAGCCGGGUCAUG | 1.09
UUUCUUGUGUCUUGUCUGUCAGAUGGCAGGAGGCCUGUAUCAGUAAAUUUGAGGAAAAUGUUCUCUCCUGGGCCAGCCUCACAGCUUGCGUUGGGUGUGUUGGAAUUGUU | 0.517

Sample 2 — method: protein binding microarray; form: double-stranded DNA, one strand shown; sample: in vitro; concentration: not given; baseline: not given; reading: higher = stronger binding
Target: Histone acetyltransferase KAT6A, both winged helices, GST fusion (KAT6A, Homo sapiens, UniProt Q92794, residues 1-181)
Setting: 8-mer, flanks averaged, mean of 2 arrays, mostly near background
Target sequence (chain): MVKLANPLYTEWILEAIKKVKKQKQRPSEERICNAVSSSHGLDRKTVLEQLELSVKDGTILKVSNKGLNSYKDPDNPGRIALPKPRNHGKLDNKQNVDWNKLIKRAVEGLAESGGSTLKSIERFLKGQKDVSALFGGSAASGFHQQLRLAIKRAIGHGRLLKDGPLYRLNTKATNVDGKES
Oligonucleotide | E-score
CTGGACGC | 0.184
CACTCTAC | -0.16
AACCCGTA | 0.244
CGTACAAA | 0.136
AAGAGCCA | -0.0601
AGCCTCCA | -0.171
CCCCATTC | -0.121
GGTACGAA | -0.101
TCAATCCA | -0.144
ATGGTTAA | -0.0797
GCGGCAGC | 0.285
TAATTTAA | -0.0469
AATGATTA | -0.137
AGGCATGG | -0.0649
CGTAGGGC | 0.132
CGCATCGC | 0.28
AACAGCCT | -0.0785
CGATACTA | 0.0404
ACTCACCT | -0.264
AGTACATC | -0.058
CACTTTAC | -0.0396
ACTACAGC | -0.129
CCAGTTTC | -0.0977
AGAATTAC | -0.0305
CGCTTAAC | 0.195

Sample 3 — target: CCND3, cyclin fold, Cln2 fusion (human); method: yeast growth competition, sequencing; sample: yeast; setting: weak parent motif; baseline: not given; reading: higher = stronger binding
Parent: RBL2 docking peptide (human); STTRRRLFVENDS
Variant | normalised enrichment score
T3A | 0.108
F8Q | 0.188
L7D | 0.168
E10W | 0.093
D12P | 0.136
V9D | 0.0433
R4I | 0.0989
S13N | 0.0199
L7W | 0.103
E10P | 0.193
R5Y | 0.155
S13D | 0.169
S13V | 0.127
T2I | 0.0254
T3Y | 0.225
T2G | 0.253
S1Y | 0.14
V9I | 0.0666

Sample 4 — method: DHFR PCA, deep sequencing; sample: yeast; added: (+)-ABA 710 µM; baseline: wild-type fitted maximum; reading: higher = stronger binding
Target: ABI1, truncated, D143A, DHFR fusion (Arabidopsis thaliana)
Setting: methotrexate growth selection, single substitutions
Parent: PYL1, truncated, DHFR fusion (Arabidopsis thaliana); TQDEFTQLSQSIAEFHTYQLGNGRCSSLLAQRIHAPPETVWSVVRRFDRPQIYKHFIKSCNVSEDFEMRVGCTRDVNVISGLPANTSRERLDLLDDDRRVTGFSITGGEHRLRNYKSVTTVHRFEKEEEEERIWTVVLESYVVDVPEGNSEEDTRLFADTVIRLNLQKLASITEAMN
Variant | relative binding score
Y141Q | -15.4%
V100A | 110%
G71L | 58.4%
G71C | 64.8%
S11N | 92.3%
R46K | 97.2%
S80A | 76.8%
V76Q | 34.9%
V62M | 98.7%
K126Y | 106%
D3E | 107%
I79E | 87.1%
T1S | 96.7%

Mixed results
Substance | target | test | test system | setting | how to read | measurement | result
PhoQ, residues 284 288 289 292 302 303 SACGEM | PhoP, residues 12 14 15 18 19 NMSFL (Escherichia coli, UniProt P23836) | Sort-seq, refers to: YFP reporter | E. coli | PhoQ-PhoP variant library, added: 10 µM Mg2+ | baseline: high Mg2+ state, higher = stronger signaling | fold induction | 15.6

A few entries again (sample 2):
Oligonucleotide | E-score
CGATACTA | 0.0404
AATGATTA | -0.137
AGGCATGG | -0.0649
AACAGCCT | -0.0785
CCAGTTTC | -0.0977
AGAATTAC | -0.0305
